Measured values from different studies.
Protocols differ between the studies behind these lines. ± marks the error that the study gave.

CO[C@H]1CC=C2CCN3CCC4=C(CC(=O)CC4)[C@]23C1
ethanol preference (intermittent two-bottle choice; Wistar rat, 20% ethanol drinking; subcutaneous, 6 mg/kg, 24 h; relative to: ethanol over total fluid intake): 48 ± 5%

C[C@H](NCc1ccc(-c2ccc(C(F)(F)F)cc2)cc1)C(N)=O
step-through latency (passive avoidance retention; APP/PS1 mice; oral, 10 mg/kg, 336 h, 2 weeks treatment): 314 ± 66.5 s

COc1ccccc1-c1n[nH]c2nc(N[C@H]3CC[C@H](NS(=O)(=O)CC(C)C)CC3)ncc12
relative abundance (bead binding, competition bead pull-down, refers to: LINJ.35.1420; Leishmania donovani extract; 10 µM; relative to: vehicle): 1.08

CCN(Cc1ccccc1)C(=O)CCc1nc(CN2CCN(C(=O)Cc3ccc(OC)c(OC)c3)CC2)no1
action potential amplitude (current clamp; DRG neurons, naive rat; 10 µM): 71.2 ± 8.48 mV

NNC(=O)c1ccccc1
normalised absorbance (hydrazine ligation kinetics, absorbance; concentration not given, 40 s, added: 2-formylphenylboronic acid): 0.759

O=C(O)c1ccc(-c2nc(-c3ccccc3Cl)c3sccn23)cc1
splenic vWF+ megakaryocytes (mouse, spleen; dose not given): 18.8 per high-power field

CC(C)C[C@@H]1NC(=O)[C@@H](Cc2c[nH]c3ccccc23)NC(=O)[C@H](CCCNC(=N)N)NC(=O)[C@@H](CCC(=O)O)NC(=O)[C@H](CCC(N)=O)NC(=O)[C@@H](CCC(=O)O)NC(=O)[C@H](CCCNC(=N)N)NC(=O)[C@@H](Cc2c[nH]c3ccccc23)NC1=O
cytokine level (Luminex, refers to: G-CSF; LDLr-/- mice, Western diet, liver; dose not given, 4 weeks): 380 ± 150 pg/g tissue

CCc1nnc(-c2c(OC)cc(-c3cnc4cc(-c5cnn(C)c5)ccn34)cc2OC)o1
mineralizing surface/bone surface (histomorphometry; male C57BL/6J mouse, tibia; oral gavage, 10 mg/kg once daily, 3 wk): 0.729 ± 0.09%

COc1ccccc1-c1n[nH]c2nc(NC3CCN(C(=O)Cc4ccc(F)cc4F)CC3)ncc12
relative abundance (bead binding, competition bead pull-down, refers to: LINJ.25.0940; Leishmania donovani extract; 10 µM; relative to: vehicle): 0.85

CCCC[C@@H]1NC(=O)[C@H](Cc2ccc(O)cc2)NC(=O)[C@@H]2CCCN2C(=O)[C@H](CC(=O)O)NC(=O)[C@H](C)NC(=O)[C@H](Cc2ccccc2)NC(=O)[C@@H]2CSCCC(=O)N3CN(CN(C3)C(=O)CCSC[C@@H](C(=O)N[C@@H](C)C(N)=O)NC1=O)C(=O)CCSC[C@H](NC(C)=O)C(=O)N[C@@H](CC(C)(C)C)C(=O)N1CCC[C@H]1C(=O)N[C@@H](CCC(=O)O)C(=O)N[C@H](CCCCNC(=O)CCc1cn(CCOCCOCCOCCN(CCOCCOCCOCCC(=O)N[C@H]3CSCCC(=O)N4CN5CN(C4)C(=O)CCSC[C@H](NC(=O)[C@@H](CC(=O)O)NC(=O)[C@H](Cc4cccc6ccccc46)NC(=O)[C@@H]4CCCN4C3=O)C(=O)N[C@@H](CCSC)C(=O)N[C@@H](CCCCNC(=N)N)C(=O)N[C@@H](CC(=O)O)C(=O)N[C@@H](Cc3c[nH]c4ccccc34)C(=O)N[C@@H](CO)C(=O)N[C@@H]([C@@H](C)O)C(=O)N3CCC[C@H]3C(=O)N3C[C@H](O)C[C@H]3C(=O)N[C@@H](Cc3c[nH]c4ccccc34)C(=O)N[C@H](C(N)=O)CSCCC5=O)CCOCCOCCOCCn3cc(CCC(=O)NCCCC[C@H]4NC(=O)[C@H](CCC(=O)O)NC(=O)[C@@H]5CCCN5C(=O)[C@H](CC(C)(C)C)NC(=O)[C@@H](NC(C)=O)CSCCC(=O)N5CN6CN(C5)C(=O)CCSC[C@H](NC(=O)[C@H](Cc5ccc(O)cc5)NC(=O)[C@@H]5CCCN5C4=O)C(=O)N[C@@H](Cc4ccccc4)C(=O)N[C@@H](C)C(=O)N[C@@H](CC(=O)O)C(=O)N4CCC[C@H]4C(=O)N[C@@H](Cc4ccc(O)cc4)C(=O)N[C@@H](CCCC)C(=O)N[C@H](C(=O)N[C@@H](C)C(N)=O)CSCCC6=O)nn3)nn1)C(=O)N1CCC[C@H]1C(=O)N[C@@H](Cc1ccc(O)cc1)C(=O)N2
mRNA level (NanoString, refers to: Fcgr2b-mRNA; mouse bearing MC38-Nectin-4 tumour, circulating white blood cells; 5 mg/kg, 24 h after dosing, unit not given; relative to: vehicle): 1.93

For quick reference, copied from above:
NNC(=O)c1ccccc1
normalised absorbance (hydrazine ligation kinetics, absorbance; concentration not given, 40 s, added: 2-formylphenylboronic acid): 0.759
